Measurements pooled from the literature.
± gives the spread as reported.

Compound | test system | conditions | how to read | quantity | result
C[S]1CC[S]2CC[P](CO)(CO)[99Tc+]12.[C-]#[O+].[C-]#[O+].[C-]#[O+] | CF-1 mouse | intravenous, 4 h |  | uptake in blood | 0.4 %ID
CN(C)C(CNC(=O)Nc1cc(C(F)(F)F)ccc1N1CCOCC1)c1ccncc1 (centres unmarked) | mouse, serum | intraperitoneal, 240 mg/kg single dose |  | amylase | 908 U/L
CC=C(C)C(=O)OC1C2C3(C)CCC(OC4CC(OC)C(OC5OC(C)C(O)C(OC)C5O)C(C)O4)CC3CCC23OC32CCC(C(C)=O)C2(C)C1OC(C)=O (centres unmarked) | Caco-2 | 10 µM |  | Papp A→B | 6.38 ×10⁻⁶ cm/s
C/C=C/C=C/C/C=C/CCCCCCCc1cccc(O)c1O | female Kunming mice, tumour-bearing, tumor | intravenous, 10 mg/kg, 4 h |  | tissue concentration | 38800 ± 3130 ng/g
CC[C@H](C)C(=O)N1CCC(NC(=O)Nc2ccc(OC(F)(F)F)c(F)c2)CC1 | healthy volunteers | oral, 2 mg single dose, device site dermatitis |  | subjects with dermatitis TEAE | 33.3%
CC(C)[C@H](NC(=O)CNC(=O)[C@H](CCC(N)=O)NC(=O)[C@H](C)N)C(=O)O | healthy human | intravenous, 1 mg/kg single dose | reference: subjects | subjects with adverse events | 16.7%
CC(=CCC(O)C(C)=Cc1csc(C)n1)CC=CC(C)C(O)C(C)C(=O)C(C)(C)C(O)CC(=O)O (centres unmarked) | human, plasma | intravenous infusion, 6.5 mg/m2 KOS-1584, 3 h infusion, cycle 1 | reference: metabolite over KOS-1584 | AUC ratio | 9.27 ± 2.52%
CCCCCCCC/C=C\CCCCCCCCOP(O)(O)=S.N | mouse, male, nonirradiated | subcutaneous, single dose |  | CL/F | 10.9 mL/min/kg

A few entries again:
Compound | test system | conditions | how to read | quantity | result
C/C=C/C=C/C/C=C/CCCCCCCc1cccc(O)c1O | female Kunming mice, tumour-bearing, tumor | intravenous, 10 mg/kg, 4 h |  | tissue concentration | 38800 ± 3130 ng/g
